Measurements collected from several papers.
Parts stem from different laboratories: compare values within a part only. Values joined by “and” are separate records of one study, mostly repeats; a detail may differ.
Sequence of UniProt P68400 (whole entry, looked up): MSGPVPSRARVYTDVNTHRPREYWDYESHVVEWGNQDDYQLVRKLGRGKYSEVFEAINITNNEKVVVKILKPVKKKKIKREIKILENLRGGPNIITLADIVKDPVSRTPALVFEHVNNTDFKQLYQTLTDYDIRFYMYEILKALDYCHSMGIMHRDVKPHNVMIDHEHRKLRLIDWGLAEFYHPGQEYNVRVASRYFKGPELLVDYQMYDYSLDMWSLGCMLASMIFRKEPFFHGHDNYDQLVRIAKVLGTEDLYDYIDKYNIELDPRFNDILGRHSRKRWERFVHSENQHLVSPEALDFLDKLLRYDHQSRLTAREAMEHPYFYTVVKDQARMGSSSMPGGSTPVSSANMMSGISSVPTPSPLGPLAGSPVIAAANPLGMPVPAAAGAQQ
Sequence of UniProt P36894 (whole entry, looked up): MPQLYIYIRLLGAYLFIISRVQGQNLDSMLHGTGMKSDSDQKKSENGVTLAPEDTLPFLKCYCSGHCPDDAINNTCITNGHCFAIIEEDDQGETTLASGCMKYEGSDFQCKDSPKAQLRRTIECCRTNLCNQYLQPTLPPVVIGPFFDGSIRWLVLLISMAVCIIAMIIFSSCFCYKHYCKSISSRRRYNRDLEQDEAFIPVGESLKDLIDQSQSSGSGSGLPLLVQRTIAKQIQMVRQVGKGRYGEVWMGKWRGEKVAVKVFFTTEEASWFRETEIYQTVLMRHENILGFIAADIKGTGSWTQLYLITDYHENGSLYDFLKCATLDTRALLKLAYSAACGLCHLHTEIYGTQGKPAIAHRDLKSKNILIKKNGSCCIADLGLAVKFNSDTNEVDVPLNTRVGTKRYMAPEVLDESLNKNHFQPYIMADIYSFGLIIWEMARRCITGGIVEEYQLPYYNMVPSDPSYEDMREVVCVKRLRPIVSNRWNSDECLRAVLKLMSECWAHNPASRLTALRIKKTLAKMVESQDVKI
Sequence of UniProt P25098 (whole entry, looked up): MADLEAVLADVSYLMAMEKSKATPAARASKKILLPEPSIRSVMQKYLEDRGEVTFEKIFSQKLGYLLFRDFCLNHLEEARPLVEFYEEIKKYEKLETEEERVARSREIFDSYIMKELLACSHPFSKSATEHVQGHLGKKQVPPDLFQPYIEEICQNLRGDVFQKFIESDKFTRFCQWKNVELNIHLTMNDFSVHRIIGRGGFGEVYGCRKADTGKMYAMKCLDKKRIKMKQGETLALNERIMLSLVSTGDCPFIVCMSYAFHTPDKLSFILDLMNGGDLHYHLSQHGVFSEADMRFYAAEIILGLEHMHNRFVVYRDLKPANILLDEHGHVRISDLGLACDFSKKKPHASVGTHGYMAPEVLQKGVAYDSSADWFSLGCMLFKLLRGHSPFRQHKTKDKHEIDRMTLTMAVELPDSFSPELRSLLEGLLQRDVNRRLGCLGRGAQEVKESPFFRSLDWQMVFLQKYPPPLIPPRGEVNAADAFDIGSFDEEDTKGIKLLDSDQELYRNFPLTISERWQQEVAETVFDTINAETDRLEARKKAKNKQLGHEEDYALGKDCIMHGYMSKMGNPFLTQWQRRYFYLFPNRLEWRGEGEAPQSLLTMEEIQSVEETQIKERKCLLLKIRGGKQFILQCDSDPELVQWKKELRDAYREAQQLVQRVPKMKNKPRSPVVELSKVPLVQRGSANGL

Set 1
SMILES: NS(=O)(=O)c1cc(NC(=O)C2(c3ccccc3Cl)CC2)ccc1Oc1cccc(Cl)c1
Technique: competition with immobilised ligand
Tested at: 1 µM
target	assay	remaining binding
Casein kinase II subunit alpha (CSNK2A1, Homo sapiens, UniProt P68400)	cell-free assay	100%
Bone morphogenetic protein receptor type-1A (BMPR1A, Homo sapiens, UniProt P36894)	binding	90%
Beta-adrenergic receptor kinase 1 (GRK2, Homo sapiens, UniProt P25098)	cell-free assay	100%
cAMP-dependent protein kinase catalytic subunit beta (PRKACB, Homo sapiens, UniProt P22694)	cell-free assay	88%

Set 2
Cell line: HaCaT
Tested at: 100 µM
Time: 36 h
Structure (SMILES)	viability [%]
Nc1ccc(S(=O)(=O)NC(=O)c2ccccc2)cc1	70.4
COC(=O)C1=C(C)NC(C)=C(C(=O)OCC(C)C)C1c1ccccc1[N+](=O)[O-] (stereo not shown)	6.39
Cc1ccc(S(=O)(=O)NC(=O)NN2CC3CCC[C@@H]3C2)cc1 (stereo in doubt)	85.5
CC(=O)Nc1ccc(CC(=O)O)cc1	88.7

Set 3
Target: Mitogen-activated protein kinase 12 (MAPK12, Homo sapiens, UniProt P53778)
Read-out: enzyme activity
Mode: inhibitor
Tested at: 0.5 µM
Baseline: control
Construct (P53778 1-367): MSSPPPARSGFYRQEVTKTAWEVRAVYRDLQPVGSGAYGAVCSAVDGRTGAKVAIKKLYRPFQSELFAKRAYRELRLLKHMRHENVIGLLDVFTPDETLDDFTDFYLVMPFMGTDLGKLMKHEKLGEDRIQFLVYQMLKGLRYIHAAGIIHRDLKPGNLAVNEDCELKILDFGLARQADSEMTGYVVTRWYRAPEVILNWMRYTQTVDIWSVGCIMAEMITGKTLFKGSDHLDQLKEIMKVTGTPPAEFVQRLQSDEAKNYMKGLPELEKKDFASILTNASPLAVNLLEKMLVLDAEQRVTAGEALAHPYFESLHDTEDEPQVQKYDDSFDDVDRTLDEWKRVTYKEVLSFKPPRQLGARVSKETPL
Structure (SMILES)	remaining activity [%]
CCOC(=O)c1c(C)[nH]c(/C=C2\C(=O)Nc3ccccc32)c1C	101
COc1cc2ncnc(Nc3ccc(Oc4ccccc4)cc3)c2cc1OC	105
Nc1ccc2ncnc(NCCc3ccc(Oc4ccccc4)cc3)c2c1	93.6
O=C(O)c1ccc2c3c1cccc3c(=O)n1c3ccccc3nc21	103
Cn1sc(=O)n(Cc2ccccc2)c1=O	102
COc1ccc(C(=O)Nc2sc3c(c2C(N)=O)CCCC3)cc1OC	96.5
Cc1cccc(-c2[nH]c(C(C)(C)C)nc2-c2ccc3c(c2)OCO3)n1	95.7
N#CC(C#N)=C(N)/C(C#N)=C/c1ccc(O)cc1	92.6
O=C(CCCc1ccc(-c2ccccc2F)cc1)Nc1ccc(O)cc1	104
Cc1ccc(NC(=O)c2ccc(CN3CCN(C)CC3)cc2)cc1Nc1nc(-c2cccnc2)cs1	96.9
O=S(=O)(c1cccc2cnccc12)N1CCCNCC1	99.3
O=C1NC(=O)C(c2cn(CCCn3ccnc3)c3ccccc23)=C1Nc1ccccc1	102
Cc1ccc(Nc2nccc(N(C)c3ccc4c(C)n(C)nc4c3)n2)cc1S(N)(=O)=O	93.7
COc1ccc(OC)c2c(=S)c3ccccc3[nH]c12	98.1

Set 4
Cell line: mouse MPNST tumor cells
Technique: high-content nuclear imaging
Measured: cell number
Tested at: 10 µM
Time: 12 h
Notes: mean of 2 replicates
Baseline: plate mean
Direction: higher = more cells
SMILES	nuclei count
Nc1nc(Cl)nc2c1ncn2[C@@H]1O[C@H](CO)[C@@H](O)[C@@H]1F	-3.88 z-score and -4.72 z-score
Cc1ccc(S(=O)(=O)NC(=O)NN2CCCCCC2)cc1	0.28 z-score
NC(=O)NO	-0.362 z-score
Cc1cc2cc3c(C)cc(=O)oc3c(C)c2o1	0.945 z-score and -0.115 z-score
CCCCNc1ccc(C(=O)OCCN(C)C)cc1	2.3 z-score

Other studies, line by line
Structure (SMILES)	test system	setting	quantity	value
CC(C)n1cnc(-c2ccc(F)cc2)c1-c1ncc(C(=O)Nc2ccc(N3CCN(C)CC3)cc2)[nH]1	IPF patients	30 mg once daily, adverse event	Rhinorrhoea incidence	0%
